Measured values collected from several papers.
Every numbered part comes from another study and shows a few of its results, in no order. Substitutions count along the parent as printed.

Series 1 — method: protein binding microarray; form: double-stranded DNA, one strand shown; medium: in vitro; tested at: not given; relative to: not given; direction: higher = stronger binding
Target: Histone acetyltransferase KAT6A, winged helix 1, GST fusion (KAT6A, Homo sapiens, UniProt Q92794, residues 1-85)
Setting: 8-mer, flanks averaged, mean of 2 arrays, mostly near background
Residues (chain): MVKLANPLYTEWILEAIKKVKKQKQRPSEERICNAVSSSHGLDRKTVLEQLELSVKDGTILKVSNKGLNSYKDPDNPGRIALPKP
| Strand | E-score |
| --- | --- |
| GGGGTTCA | 0.0506 |
| AGTAAAAA | -0.0839 |
| CAAGTAGA | -0.123 |
| AAGAGGAA | -0.207 |
| CGCATCAA | 0.168 |
| AGGTGGTA | -0.0346 |
| CATGCTCC | -0.107 |
| CGGTGAGC | 0.143 |
| GTACAGGA | -0.0779 |
| ACACGAAG | -0.0464 |
| ACCCCTTG | -0.187 |
| AGCATAGA | -0.0814 |
| ACCAAACG | 0.0549 |
| ATGGTGGG | -0.0375 |
| GCGCTTGA | 0.264 |
| AGTTAACG | 0.0425 |
| GAGATATC | -0.108 |
| CGCAGCTA | 0.0682 |
| CGTCCGAG | 0.205 |
| ACCACAAT | -0.162 |
| AATTTATA | -0.143 |
| GAAAGCGC | 0.409 |

Series 2 — method: RNA Bind-n-Seq; form: RNA; medium: in vitro; tested at: 200 nM; setting: whole 134-nt RNA, ends assumed; together with: 150 mM KCl; relative to: input library; direction: higher = stronger binding
Target: Ras GTPase-activating protein-binding protein 1, full length (G3BP1, Homo sapiens, UniProt Q13283)
UniProt Q13283, sequence (whole entry, looked up): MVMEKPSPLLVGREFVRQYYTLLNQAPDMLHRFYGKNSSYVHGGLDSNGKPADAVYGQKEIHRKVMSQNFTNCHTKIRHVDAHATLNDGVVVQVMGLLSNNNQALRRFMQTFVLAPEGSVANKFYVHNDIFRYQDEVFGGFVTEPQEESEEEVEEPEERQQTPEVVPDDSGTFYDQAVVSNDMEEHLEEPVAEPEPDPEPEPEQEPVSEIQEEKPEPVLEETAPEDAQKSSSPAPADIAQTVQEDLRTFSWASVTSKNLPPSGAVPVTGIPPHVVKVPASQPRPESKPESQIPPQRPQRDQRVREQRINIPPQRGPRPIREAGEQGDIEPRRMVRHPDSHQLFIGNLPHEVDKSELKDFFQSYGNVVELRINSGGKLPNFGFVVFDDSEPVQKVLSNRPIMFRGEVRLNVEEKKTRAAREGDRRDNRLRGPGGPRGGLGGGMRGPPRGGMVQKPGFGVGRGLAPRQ
Constant ends, left off below: GGGAGUUCUACAGUCCGACGAUC … UGGAAUUCUCGGGUGUCAAGG
| Strand | log2 enrichment |
| --- | --- |
| AAGUCCUGUGCUACACAUCGUAUGUACCGAAUCGGUUUUGGGGUUUUGGUUUUGGGGAAAGUAUUAUGUUACGCCGUUCGGAUCUGCACU | -0.858 |
| UGGCCCUGGUGGCAUGCGGGGAGGAAGAGGUGGCCUCAUGGAUCGUGGUGGUCCCGGUGGAAUGUUCAGAGGUGGCCAUGGUGGAGACAG | -0.0424 |
| AAGUCCUGUGCUACACAUCGUAUGUACCGAAUCGGGGAGGGGAAAGGGGUUUGGGGAAAGUAUUAUGUUACGCCGUUCGGAUCUGCACUU | 0.872 |
| GCAGGAAGUAAAAACAAAUGGAAAUGCUUCGGAUAGUGGCAGGGGUGGGGGUUGCUUAGGAAAGGGUGGGAUGGGAGUGGGUAAAGAGUU | 1.05 |
| UCCUGUGCUACACAUCGUAUGUACCGAAUCGGUUUUUUGGUUUUUUGGGGUUUUUUGGGAAAGUAUUAUGUUACGCCGUUCGGAUCUGCA | -0.635 |
| AAGUCCUGUGCUACACAUCGUAUGUACCGAAUCGGGUGGGAAAGGGUUUUUUUGGGAAAGUAUUAUGUUACGCCGUUCGGAUCUGCACUU | 0.103 |
| UGCUUGUUCUGGAGUGAUCUUCUGACUGGAAAAGAACUAUGUCAUGGAUCAAGGAAGGAGAGCUGUCACUUUGGGAGCGGUUCUGUGCCA | 0.714 |
| AAGUCCUGUGCUACACAUCGUAUGUACCGAAUCGGCCCCCGGCCCCCGGCCCCCGGAAAGUAUUAUGUUACGCCGUUCGGAUCUGCACUU | -0.408 |
| UGUGAGACUGAAGAUUAUGGAGAAAAGUUUGAUGAAAAUGAUGUGAUUACAUGUUUUGCUGUAAGUUAAAGCUAACUUUCUAUGUAUAAA | -1.36 |

Series 3 — target: CCND1, cyclin fold, Cln2 fusion (human); method: yeast growth competition, sequencing; medium: yeast; setting: weak parent motif; relative to: not given; direction: higher = stronger binding
Starting sequence: E2F8 docking peptide (human); FVPQRKLEVSTED
| Change | normalised enrichment score |
| --- | --- |
| FVPARKLEVSTED [Q4A] | -0.807 |
| FVPQRALEVSTED [K6A] | -0.101 |
| FVPQRKLEASTED [V9A] | -0.156 |
| FAPQRKLEVSTED [V2A] | -0.139 |
| FVPQAKAEVSTED [R5A L7A] | 0.0531 |
| FVPQRKLEVSAED [T11A] | -0.407 |
| FVPQKKLELSTED [R5K V9L] | 0.0978 |
| FVPQKKLEFSTED [R5K V9F] | 0.318 |
| FVPQRKLAVSTED [E8A] | -0.143 |
| FVPQRKLEVSTEA [D13A] | -0.503 |
| FVPQRKLELSTED [V9L] | -0.342 |

Series 4 — method: RNA Bind-n-Seq; form: RNA; medium: in vitro; tested at: 365 nM; relative to: no-protein control; direction: higher = stronger binding
Target: RNA binding protein fox-1 homolog 2, RRM domain, GST-SBP tag (RBFOX2, Homo sapiens, UniProt O43251-10, residues 100-194)
Setting: natural RNA segment, single round, ends assumed
Constant ends, left off below: GGGAGUUCUACAGUCCGACGAUC … UGGAAUUCUCGGGUGCCAA
Construct (chain): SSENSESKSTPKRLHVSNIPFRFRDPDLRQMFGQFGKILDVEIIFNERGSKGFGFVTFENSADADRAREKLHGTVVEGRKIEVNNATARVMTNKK
| Strand | RBNS enrichment (R) |
| --- | --- |
| UCUCAGAAAGCCAUCAACAGGCUCUGGUAAAACAUAGGUAAAAAUGGGUGAUUAUGAUUGACACUCACCUGCCCUGGAAAGCCAGGGUGUGAGAUGGGUGUCUGGGAGUG | 0.344 |
| UUUGGCUGGCUUUCUAUCCACAAACCUAAAGCAGAGCUUGAAUGAUAAAUAGCAAGAAUGGAUGUGUAAUGUGACAAUCAAGGCAGAUAUUUGUUCUAGUUGGAAAGACG | 1.06 |
| UGUAGGGAGUUGUGGGUAGUGGGGAAGAGGGUUAGGAGGGUUUCAUUGUCUGUGAAGUGAGACCUUCCUUUUACUUUUCUUCUAUUGCCUCUGAGAGCAUCAGGCCUAGA | 1.54 |
| AACAAGUAGGAGCAGCAACUAGCUAAAGAGUAGAAAGAAGCUUCCCUUAUUGUGGGUGAUGAGGCGGUGCCUAAAAACCACAUAUAUAUAAUCCCCUGGGUAUUACAUAU | 0.322 |
| UUUUUUUAAAAUUAUGAAUCAUAUCAAGUAGUUGUUUACAUUUCUUGAAAAAAUAGGAACUCGGGCAGCAGAAUCAGAUUGGCAGAAUCUUUAGACUACACAGGCAAUAA | 0.616 |
| CCCUCCUCUCCACCAUCGUCUUCUUGGCCAUGGGAGGCCUUUCCCUAAGCCAGCUGCCCCCAGAGCCACAGUUCCCCUAUGUGGAAGUGGGGCGGGCUUCAUAGAGACUU | 0.425 |
| ACCGGGGUCAGGUCUCUCAUCUUAAGAAGUUCCCUCUAAAAUGAAAGGUUGUGUAAGAGGAAAGCCUGCUCAGGCCCAAGGGUUUCGAGAACCUGCACUUGGUGCUAAUC | 0.705 |
| UUCCCACUGAGCCUGUGCUUGCAUGACUACAUUGAGGAGAGAGAUGGUACCGGGGGUGGGGCUGUCACAACUGAAAACCCUCCAGCUGGAAUGGACAAUGUGCCCCCAAC | 2.99 |

For quick reference, copied from above (series 1):
| Strand | E-score |
| --- | --- |
| ACCCCTTG | -0.187 |
| AGCATAGA | -0.0814 |
| ACCAAACG | 0.0549 |
